# Measured values pooled from the literature.
# Each numbered part is a random draw from the data of one study; scales do not carry over between parts.
# Chain of UniProt Q8WVN8 (whole entry, looked up): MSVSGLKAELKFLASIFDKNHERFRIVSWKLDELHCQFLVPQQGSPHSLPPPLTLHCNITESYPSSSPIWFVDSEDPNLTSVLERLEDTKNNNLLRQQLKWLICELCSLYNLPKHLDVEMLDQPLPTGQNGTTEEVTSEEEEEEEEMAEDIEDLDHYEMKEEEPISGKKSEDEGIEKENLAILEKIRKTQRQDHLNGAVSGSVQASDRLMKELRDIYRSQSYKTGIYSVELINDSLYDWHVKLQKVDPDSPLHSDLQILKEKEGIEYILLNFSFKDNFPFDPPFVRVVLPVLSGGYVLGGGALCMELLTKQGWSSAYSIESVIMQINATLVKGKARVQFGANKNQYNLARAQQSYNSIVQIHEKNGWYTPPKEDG
# Chain of UniProt Q15819 (whole entry, looked up): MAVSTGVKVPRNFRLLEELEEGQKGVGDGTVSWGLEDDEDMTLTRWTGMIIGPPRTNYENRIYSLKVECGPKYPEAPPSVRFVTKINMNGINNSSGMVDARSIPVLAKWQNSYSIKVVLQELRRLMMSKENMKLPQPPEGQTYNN
# Chain of UniProt Q96LR5 (whole entry, looked up): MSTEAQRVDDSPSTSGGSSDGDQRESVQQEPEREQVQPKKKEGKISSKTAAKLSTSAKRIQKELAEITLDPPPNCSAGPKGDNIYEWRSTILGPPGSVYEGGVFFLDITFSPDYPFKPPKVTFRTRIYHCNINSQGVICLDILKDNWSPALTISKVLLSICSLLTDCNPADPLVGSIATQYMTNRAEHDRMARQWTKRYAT
# Chain of UniProt Q5VVX9 (whole entry, looked up): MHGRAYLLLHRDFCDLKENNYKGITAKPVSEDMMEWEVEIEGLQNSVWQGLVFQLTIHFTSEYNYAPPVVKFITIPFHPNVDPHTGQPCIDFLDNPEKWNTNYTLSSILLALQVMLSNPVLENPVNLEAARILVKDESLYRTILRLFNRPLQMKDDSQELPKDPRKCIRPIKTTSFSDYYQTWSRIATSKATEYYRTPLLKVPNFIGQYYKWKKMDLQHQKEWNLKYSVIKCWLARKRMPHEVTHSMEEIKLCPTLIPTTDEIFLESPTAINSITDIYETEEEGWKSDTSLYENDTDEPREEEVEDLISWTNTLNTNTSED
# Chain of UniProt P62256 (whole entry, looked up): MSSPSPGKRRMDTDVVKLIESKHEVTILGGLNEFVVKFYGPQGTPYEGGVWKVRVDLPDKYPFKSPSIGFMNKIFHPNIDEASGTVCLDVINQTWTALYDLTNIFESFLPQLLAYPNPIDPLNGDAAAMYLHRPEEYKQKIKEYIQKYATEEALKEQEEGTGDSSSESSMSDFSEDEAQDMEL
# Chain of UniProt Q13404 (whole entry, looked up): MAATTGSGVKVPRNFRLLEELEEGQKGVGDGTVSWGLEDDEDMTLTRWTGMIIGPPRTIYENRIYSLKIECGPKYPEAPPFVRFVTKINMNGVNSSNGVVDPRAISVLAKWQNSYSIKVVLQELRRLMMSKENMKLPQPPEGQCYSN
# Chain of UniProt O14933 (whole entry, looked up): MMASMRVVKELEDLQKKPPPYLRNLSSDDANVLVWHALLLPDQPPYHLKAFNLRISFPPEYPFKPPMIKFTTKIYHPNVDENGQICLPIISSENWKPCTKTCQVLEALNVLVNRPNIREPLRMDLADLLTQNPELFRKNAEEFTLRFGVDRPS
# Chain of UniProt P61088 (whole entry, looked up): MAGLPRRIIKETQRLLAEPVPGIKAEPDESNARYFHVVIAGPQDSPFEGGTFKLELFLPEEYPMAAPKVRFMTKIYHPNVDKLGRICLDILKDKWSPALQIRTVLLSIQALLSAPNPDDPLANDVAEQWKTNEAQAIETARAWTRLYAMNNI
# Chain of UniProt P49427 (whole entry, looked up): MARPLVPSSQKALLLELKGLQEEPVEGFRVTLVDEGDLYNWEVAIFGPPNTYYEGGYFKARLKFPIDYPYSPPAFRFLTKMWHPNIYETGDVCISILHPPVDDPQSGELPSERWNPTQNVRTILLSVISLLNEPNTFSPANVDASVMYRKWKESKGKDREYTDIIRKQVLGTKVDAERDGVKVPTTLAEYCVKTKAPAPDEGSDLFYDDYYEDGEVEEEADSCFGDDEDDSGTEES
# Chain of UniProt P60604 (whole entry, looked up): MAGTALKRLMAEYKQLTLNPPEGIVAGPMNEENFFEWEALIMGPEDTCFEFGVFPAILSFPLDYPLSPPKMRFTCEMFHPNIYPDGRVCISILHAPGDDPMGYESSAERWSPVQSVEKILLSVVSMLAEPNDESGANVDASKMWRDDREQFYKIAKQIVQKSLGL
# Chain of UniProt P51965 (whole entry, looked up): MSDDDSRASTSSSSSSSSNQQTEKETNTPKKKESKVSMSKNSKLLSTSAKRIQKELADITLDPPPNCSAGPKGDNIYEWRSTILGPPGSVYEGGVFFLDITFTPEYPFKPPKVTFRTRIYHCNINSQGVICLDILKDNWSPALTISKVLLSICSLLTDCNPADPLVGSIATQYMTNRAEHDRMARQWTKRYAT

# Sample 1
# Target: RNA binding protein fox-1 homolog 2, RRM domain, GST-SBP tag (RBFOX2, Homo sapiens, UniProt O43251-10, residues 100-194)
# Method: RNA Bind-n-Seq
# Form: RNA
# Matrix: in vitro
# Tested at: 365 nM
# Setting: natural RNA segment, single round, ends assumed
# Baseline: no-protein control
# Direction: higher = stronger binding
# All sequences stand within: GGGAGUUCUACAGUCCGACGAUC … UGGAAUUCUCGGGUGCCAA
# Target sequence (chain): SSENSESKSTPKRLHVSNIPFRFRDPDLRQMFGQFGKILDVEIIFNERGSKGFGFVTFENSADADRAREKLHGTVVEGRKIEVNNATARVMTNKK
Oligonucleotide,RBNS enrichment (R)
CCUUGAGUGUGGCACCUCCCCUCCCAAGCCCCCCUUGACAUCCUCUCAGCUACUCCAGGGCACCUGACUGCUCUGAGGAGAGGGAAGAAGGCCUGCUGGGGCUUUCCAUG,1.49
CUCCAUGUUACCCUCCACUCCUUGGCCCAAACCUCUGAUGGAGAUAGACAUUGUUGGAGAAGUGGGCUGCCUUCCCCAAGUGGGGCACUGCUUAAGCACUUAUUCAGUGG,0.331
GGCACUGAGAUACCAGCGAGGAGGCUCCAGAGGGCACUCUGCUUGUUAUUAGAGAUUACCUCCUGAGAAAAAAGGUUCCGCUUGGAGCAGAGGGGCUGAAUAGCAGAAGG,0.939
CAUCUCCAGGAGCUGGCCAGUUAUCUUAGAAAACAACUGAAUGGAAUAUUUUUGUACCUGAUGUUUCCAGAUGUUGGGAAGUUAUCAAUAAAGACUGUUGUUAAAAGGGA,0.686
CCCUAGUCUUAGUAUUGGACGCUAUUUACUCAGCUAUCAAGUAGAGAUCUUCAAGACGGCCUUUAUGAAAAGUUAGUGUGGUGUUAACACUAAAGUAGGUGGGGUGUGGG,0.389
UACAGUCAGUAAGUUUCACUGCGUGCACACUGACACGUUUGAGAUUGUAGGAGGACAUAUAAUUCAUAUGCUAUGUUGUACAUUUUAUGGAAAUAUAAAAGAAUCCCACA,0.632
UUGCCAUGUAACAAAUUACUGCUUGACAUGUUGGCAUUCAUAUUAAUUACGGAUGUAAUUCUGUGUAUCUUACUGUGACUCCGAAAACUGUAGUAUUGGUGUCAUGGGAA,0.325
CUGCCUGCUAUGAGGGGUGGAUACUGUUCCAGAUCUUUGGGGGAAUUGUUACCUCCUGUUGUUUUGUUACUGAGUAAGAUAACUUUGUUGAAUAAAGACCUUUAUCCCCA,1.57
AAAAUAUUUAAUUACCGGUUGUUAAAACUGGUUUAGCACAAUUUAUAUUUUCCCUCUCUUGCCUUUCUUAUUUGCAAUAAAAGGUAUUGAGCCAUUUUUUAAAUGACAUU,0.845
CAGAAUUAUUAUUCAGAUCAAGAAAUCUGUGUCGAUAAAACCUAAUCUCAUAUUGGAGAGUGAAUGUCGUUAAGUAUUUCUGAAAUGUUUCUAAAAAAUGAACAUGAAAA,0.565
CCAUCCUUAAUCCAAAAUUUUGAGUCAAGUCUUAUAAGUGGAAAAUUCCAGUGAACAUUUAUUUUGUAUAUAAAAUUUUAAACCUAUUGUGUGAAGCUACCCUCAGGCUA,1.04
CAGGACAGGCGUGAAGAUGGAGUCCUUGUCGCAGCUGGAGCCUUGCCUAGCUGGUGAUCACACAGCCUGGCCUGUACCUGCACCCCACUGGAUGGUGGUACAUGGUGGCA,0.395

# Sample 2
# Target: Histone acetyltransferase KAT6A, winged helix 2, GST fusion (KAT6A, Homo sapiens, UniProt Q92794, residues 85-181)
# Method: protein binding microarray
# Form: double-stranded DNA, one strand shown
# Matrix: in vitro
# Tested at: not given
# Setting: 8-mer, flanks averaged, mean of 2 arrays, mostly near background
# Baseline: not given
# Direction: higher = stronger binding
# Target sequence (chain): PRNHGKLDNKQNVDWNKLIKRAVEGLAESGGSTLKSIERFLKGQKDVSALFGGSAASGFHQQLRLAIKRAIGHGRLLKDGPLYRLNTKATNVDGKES
Oligonucleotide,E-score
ACGATCGA,0.0387
GATGTGAC,-0.0908
CTAGCTGA,-0.173
CTCGGAGC,0.217
CTCACCAG,0.105
CAATTCAG,-0.015
GATTCCGC,-0.00619
ATCTTACG,-0.0653
AAGTCCGA,-0.171
ACATGAGG,-0.159
AGGGGGTG,-0.00067
GCCCTCAA,0.00296
CAGAGGAG,0.0436
AATCTGAT,0.103
AGCCCGCA,0.0504
TAATATTA,0.12
AGTCGAGC,-0.072
GAGGTGGC,0.0375

# Sample 3
# Substance: RNF141 RING domain (UniProt Q8WVD5)
# Chain of UniProt Q8WVD5 (whole entry, looked up): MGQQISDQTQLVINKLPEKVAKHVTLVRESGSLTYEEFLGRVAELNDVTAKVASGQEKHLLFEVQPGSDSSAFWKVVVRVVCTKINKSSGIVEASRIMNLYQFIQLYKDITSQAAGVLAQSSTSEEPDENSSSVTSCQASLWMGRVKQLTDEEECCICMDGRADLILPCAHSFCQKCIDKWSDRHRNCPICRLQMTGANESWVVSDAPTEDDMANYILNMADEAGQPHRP
# Method: yeast two-hybrid
# Matrix: yeast
# Setting: mostly zero background
# Baseline: not given
# Direction: higher = stronger interaction
target,lacZ reporter activity
UBE2E1 UBC core domain (UniProt P51965),0
UBE2V2 UBC core domain (UniProt Q15819),0
UBE2L6 UBC core domain (UniProt O14933),0
UBE2E2 UBC core domain (UniProt Q96LR5),0
UBE2H UBC core domain (UniProt P62256),0
UBE2V1 UBC core domain (UniProt Q13404),0
UBE2Q2 UBC core domain (UniProt Q8WVN8),0
CDC34 UBC core domain (UniProt P49427),0
UBE2N UBC core domain (UniProt P61088),0
UBE2G2 UBC core domain (UniProt P60604),0
UBE2U UBC core domain (UniProt Q5VVX9),0

# Sample 4
# Target: Hepatocyte nuclear factor 3-alpha (Foxa1, Mus musculus, UniProt P35582, residues 1-468, full length assumed)
# Chain of UniProt P35582 (whole entry, looked up): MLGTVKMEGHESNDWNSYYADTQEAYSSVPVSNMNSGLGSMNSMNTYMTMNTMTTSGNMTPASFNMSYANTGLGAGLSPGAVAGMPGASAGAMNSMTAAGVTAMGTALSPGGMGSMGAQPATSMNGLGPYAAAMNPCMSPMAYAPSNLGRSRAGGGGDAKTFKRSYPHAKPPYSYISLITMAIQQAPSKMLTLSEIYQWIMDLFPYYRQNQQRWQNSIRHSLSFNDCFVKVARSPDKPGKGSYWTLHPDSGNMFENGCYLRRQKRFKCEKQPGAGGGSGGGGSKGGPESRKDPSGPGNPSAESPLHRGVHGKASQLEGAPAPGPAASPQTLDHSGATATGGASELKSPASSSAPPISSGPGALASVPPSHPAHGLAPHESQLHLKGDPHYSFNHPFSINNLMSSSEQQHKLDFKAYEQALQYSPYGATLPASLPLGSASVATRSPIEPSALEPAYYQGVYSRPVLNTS
# Method: EMSA with sequencing
# Form: double-stranded DNA, one strand shown
# Matrix: in vitro
# Tested at: 10 and 20 nM
# Setting: whole designed probe, mean of two concentrations, ends assumed
# Baseline: negative control set to 0
# Direction: higher = stronger binding
# All sequences stand within: GTGAGCGGTGCCCATTGATGGGGAAC … TTTCACTGGGATCGTGGGGAC
Oligonucleotide,normalised bound fraction
GTTTGGCATTTATTTTTACTTTGTTGTAATAGTAAACACAAGGGATCCCCTTTATTTAGCATAAAATTTCCTTGCCAGAAAGTAAATATTTGATGTTTATATAAGCAGCTATAAAAACAATTTCCTGAGAGATTTCTCCACAAAAATATTTACCTGCTTGAGCCGATGGATTGAGATGATTTGGAAACCAAAC,0.399 ratio
CTCATTCCTTGCTTCCGCCAATAATCTGACTAGTAAAGAAGTCACTGCATGCCACAAATTGTGAGTGACTCAGTCCTCAACAAGGAAGTTATTTATTTACTTATTTAATATATGAGTGTCACAGATGCAAATTCCATCTTGAGAATACCAACTCCTGATGCCAACTGATTGTCAGTCATGGCTACAACAGGAG,0.419 ratio
TATATATATATATACTGCCTCAATGTTTTTTAACATGAAATTATTTAGATTATCTAAGACAAGCTGGCTAGGAGTTGTTTTGATTAGAATCAAAGTAATCTTAAAACATATTGGCTCAAATTGCTTAGTGGGCGCAATTAAATTTATGATGTATATAACACCATCAGCTTATTTTGAAAGTAAAGTTCTCACT,0.0371 ratio
TGGGGTAAAGAGCCCTCACCCTGCCTGCCACACACTGGTAGTGTCAGATAACATTGAAGGGTGTTAGTTTAAAGGCTTCATGGACTCTATAATGTCAACAAAAGTGCTGTTAACTTTCTTCTGGGTCTCAGGCTCCTGATGTAGAGTCAGTGGAGCAACCCTGCCATCTGCTGTTATGCTGTTGATGTTGCTG,0.294 ratio
GAAAGAAGATCAGTATACATTTGAAGTACAGTAACTTGAGCATATCTTTCCTATTCATCTCACTGAACTTGGATTTCTCTAAATATGGCAATGTAATCTGGCAAATTTTAGATTACTCAACAATCTCTACAGACACTTTAAATTCAAGTACATTTACTCTGTGTAGAGGAAGCACATGTCTAATAAAAGCCTT,-0.0201 ratio
TCCCCCAAAACGTTATTGCTTGCACTGTGGGACCTGATCCAGTGGGCTGTCATGGACGAACGGCAACACCCACTGGGACCCTATTCCCTTTGTGTAATCTGAGCAGCTCCAAACCGCGGCCCTCCTGGGCCCCCTAGCGGCAGCAGCGATGGGCACAACGTTCAAAGATCCCTCAAAGCCCTCGGGGAGTGGC,-0.00606 ratio
ATCTTCCCCCTCTTCCTTGCCCCACCAGCTCACCTTCCCGGGTTATTTGCACAAAGGAAAATAAATAAAGCCGGCATTCGTTAACCCTCTTCTGGCGCAAACTGCTGTTTGCTCTGGATGAATCATGGTCCTTTGGCGAGGCGTGGCTCCGGGAGAGCAAAGCACCGTGTCAGGGCCATGATCCGGGGTGGCC,0.362 ratio
GGAATACCCCTTTGATTTTACTGGTGACGTATACCCACTAGTGTACTGAGACGGAAAAAAAAGTCTTTAGAACTCAGATAAATATACAGTTCAAAATTACTATTTATGTATGTGTGATCTCATTATTAAATTACTCTATCATGTTTGTGGAATTAGCAGTTTCTCTTTGAATTTGGATGTTTCTAGTTATGTG,0.0217 ratio

# A few entries again (sample 2):
Oligonucleotide,E-score
GATTCCGC,-0.00619
AATCTGAT,0.103
ACGATCGA,0.0387
TAATATTA,0.12
ACATGAGG,-0.159
GAGGTGGC,0.0375
